Assay results gathered from unrelated publications.
A part holds a random share of what one study measured.
Chain of UniProt Q8WVV9 (55-430, looked up): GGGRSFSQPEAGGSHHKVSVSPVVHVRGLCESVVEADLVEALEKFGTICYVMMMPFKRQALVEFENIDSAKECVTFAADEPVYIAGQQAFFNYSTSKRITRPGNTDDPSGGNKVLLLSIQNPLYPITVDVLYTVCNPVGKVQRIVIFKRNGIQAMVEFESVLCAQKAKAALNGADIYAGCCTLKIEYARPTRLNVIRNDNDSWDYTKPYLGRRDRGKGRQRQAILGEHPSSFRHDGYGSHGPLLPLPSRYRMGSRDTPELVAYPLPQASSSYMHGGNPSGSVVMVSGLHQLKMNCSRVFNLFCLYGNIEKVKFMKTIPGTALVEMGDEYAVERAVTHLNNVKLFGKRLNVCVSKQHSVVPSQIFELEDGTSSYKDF

Series 1
Target: Interferon regulatory factor 5, full length, phosphomimetic (IRF5, Homo sapiens, UniProt Q13568-2, residues 1-514, S451D/S453D/S456D/S462D)
Technique: protein-binding microarray
Form: double-stranded DNA, one strand shown
Medium: in vitro
Concentration: 940 nM top
Setting: 60-bp whole probe
Together with: salmon DNA 0.4 mg/ml
Reference: random background probes
Reading: higher = stronger binding
Shared flanks, not repeated: GCCTAGCAC … GTCTTGATTCGCTTGACGCTGCTG
Sequence | fitted relative affinity [z-score]
TAGTTTCTAAAACTCTTTATGTGCTAG | 2.64
TTCGATATCGGGTTTCGATTAGTGCTA | 5.95
GACGGTTTCGTTATCGGGACGTGCTAG | 9.36
TCAATGGTCCTGGTTTCAACTGTGCTA | 0.847
TTGGGTTTCGGTTTCGGTTAGTGCTAG | 15.5
TCAGTTATCACTTCCAAACTGTGCTAG | 0.661
GACTCTTTCTGTCAGTTTTGGTGCTAG | 1.9
GGCGGTTTCGGGACTGGGGACGTGCTA | 7.04
GACTGTATCCTTTTCCTGACGTGCTAG | 0.822

Series 2
Target: Histone acetyltransferase KAT6A, winged helix 1, GST fusion (KAT6A, Homo sapiens, UniProt Q92794, residues 1-85)
Technique: protein binding microarray
Form: double-stranded DNA, one strand shown
Medium: in vitro
Concentration: not given
Setting: 8-mer, flanks averaged, mean of 2 arrays, mostly near background
Reference: not given
Reading: higher = stronger binding
Target sequence (chain): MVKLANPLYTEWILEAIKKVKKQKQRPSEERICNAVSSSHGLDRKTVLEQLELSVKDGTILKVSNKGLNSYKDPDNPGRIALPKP
Sequence | E-score
ATGTGAAA | -0.0727
ACTTTCGA | -0.0372
AGCGTACT | 0.137
CCCTCAGA | -0.145
CCGTCAAA | 0.196
AAGGGTCG | 0.157
GGGTTCAC | 0.214
AGGCTTAA | -0.0629
AGAGGGAC | -0.133
GGTCCGAA | 0.125
GTGAAAAC | 0.047
AGAATGTA | -0.0249
CGACTTCA | 0.0201
AACCGAGG | -0.124
GCAGGGGA | -0.0146
AACAGAGC | -0.014
ACAAGCAG | -0.269

Series 3
Target: TAR DNA-binding protein 43, full length, His tag (TARDBP, Homo sapiens, UniProt Q13148, residues 1-414)
Technique: RNA Bind-n-Seq
Form: RNA
Medium: in vitro
Concentration: 20 nM
Setting: 6-mer, flanks averaged, single round
Together with: 150 mM LiCl
Reference: input library
Reading: higher = stronger binding
Sequence | 6-mer enrichment (R)
AAUGCC | 0.904
UAGACA | 0.864
AAAACG | 0.809
AAGGCG | 0.924
UUUUAA | 1.17
AUGAUA | 0.917

Mixed results
Substance | target | assay | test system | setting | scale | quantity | value
PhoQ, residues 284 288 289 292 302 303 NLALSC | PhoP, residues 12 14 15 18 19 LWHSL (Escherichia coli, UniProt P23836) | Sort-seq, measured: YFP reporter | E. coli | PhoQ-PhoP variant library, together with: 10 µM Mg2+ | reference: high Mg2+ state, higher = stronger signaling | fold induction | 3.43
AAAAAAAA (biotin) | Heterogeneous nuclear ribonucleoprotein L-like, RRM domains (HNRNPLL, Homo sapiens, UniProt Q8WVV9, residues 55-430) | protein domain microarray | RNA, in vitro | not given, poly(A) 8-mer RNA, whole probe, immobilized GST-fusion domains, most near background | reference: GST loading signal, higher = stronger binding | signal ratio | 0.0317

Some of these lines once more (series 2):
Sequence | E-score
AACCGAGG | -0.124
GCAGGGGA | -0.0146
AACAGAGC | -0.014
ACAAGCAG | -0.269
